Results from different studies.
Numbered parts are unrelated; each lists some results of a single study.

Series 1 — technique: protein-binding microarray; form: double-stranded DNA, one strand shown; matrix: in vitro; tested at: 2540 nM top; notes: 60-bp whole probe; with: salmon DNA 0.4 mg/ml; baseline: random background probes; direction: higher = stronger binding; shared flanks, not repeated: GCCTAGCAC … GTCTTGATTCGCTTGACGCTGCTG
Target: Interferon regulatory factor 3, full length, phosphomimetic (IRF3, Homo sapiens, UniProt Q14653, residues 1-427, S386D/S396D/S398D/S402D/T404D/S405D)
Construct (chain): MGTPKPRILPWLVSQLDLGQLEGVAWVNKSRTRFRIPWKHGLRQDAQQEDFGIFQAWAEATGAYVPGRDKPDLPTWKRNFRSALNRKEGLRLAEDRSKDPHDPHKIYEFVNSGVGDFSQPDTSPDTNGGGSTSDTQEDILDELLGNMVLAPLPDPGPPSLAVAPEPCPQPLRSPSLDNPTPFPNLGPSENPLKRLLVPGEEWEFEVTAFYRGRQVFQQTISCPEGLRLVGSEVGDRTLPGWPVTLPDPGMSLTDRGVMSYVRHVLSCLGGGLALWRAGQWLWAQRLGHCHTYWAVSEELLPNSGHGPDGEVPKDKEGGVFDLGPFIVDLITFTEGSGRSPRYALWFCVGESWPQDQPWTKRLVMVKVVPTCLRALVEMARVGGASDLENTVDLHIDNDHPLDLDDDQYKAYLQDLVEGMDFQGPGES
Oligonucleotide | fitted relative affinity [z-score]
CAAGTTTCTCCTTTCCAAATGTGCTAG | 3.98
GTCGGTATCGACTTTCGGGACGTGCTA | 2.25
TTAGGTTGCGACTATCGGTTAGTGCTA | 0.437
GACGGTACCGACTTTCGGGACGTGCTA | 1.63
GACGGTCTGCTACTGCTGACGTGCTAG | -0.446
TTAGATATCGGGTATCGATTCGTGCTA | 0.701
GACGAACTGAGTCACGAGACGTGCTAG | -0.132

Series 2 — technique: competition protein-binding microarray; form: double-stranded DNA, one strand shown; matrix: in vitro; tested at: 2 µM; with: Pho4 competitor, 0.05 µM; direction: higher = stronger binding; shared flanks, not repeated: … GTCTTGATTCGCTTGACGCTGCTG
Target: Centromere-binding protein 1, full length, His-tagged (CBF1, Saccharomyces cerevisiae, UniProt P17106, residues 1-351)
Sequence of UniProt P17106 (whole entry, looked up): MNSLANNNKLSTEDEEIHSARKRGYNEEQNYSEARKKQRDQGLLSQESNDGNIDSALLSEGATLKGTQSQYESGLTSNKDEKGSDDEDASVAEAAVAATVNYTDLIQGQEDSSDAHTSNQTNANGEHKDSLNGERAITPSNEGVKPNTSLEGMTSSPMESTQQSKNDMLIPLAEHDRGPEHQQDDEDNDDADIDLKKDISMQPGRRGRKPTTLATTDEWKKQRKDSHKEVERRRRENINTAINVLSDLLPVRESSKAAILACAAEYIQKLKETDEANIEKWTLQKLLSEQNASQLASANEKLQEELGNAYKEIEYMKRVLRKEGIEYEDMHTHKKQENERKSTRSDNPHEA
Notes: whole 60-bp probe, lowest competitor level
Oligonucleotide | fluorescence intensity
CCAAAAGCGTCATTCCACGTGGACCCGCTTAGTTTA | 450 a.u.
AATGCTTTATATAACCATGTGTTTGAATTAGCGATC | 227 a.u.
AAAGTTCTTTTTCAACACGTGCTTTTAATCAGCATT | 3820 a.u.
TGCGCAACAACTTGTCGTGTGGGTGTATGTCTAGAA | 75.8 a.u.
CTAACGAAGGTTTGTCACCCGACTTACAAGCCAAGT | 76.7 a.u.
TACCAGGTCTTTTAGCACGCTGAACATAATACACAG | 131 a.u.
CATCGGCTCAACTTGATCATGCAATTAGCAAGCAAC | 75.3 a.u.

Series 3 — technique: RNA Bind-n-Seq; form: RNA; matrix: in vitro; tested at: 365 nM; baseline: no-protein control; direction: higher = stronger binding
Target: RNA binding protein fox-1 homolog 2, RRM domain, GST-SBP tag (RBFOX2, Homo sapiens, UniProt O43251-10, residues 100-194)
Notes: natural RNA segment, single round, ends assumed
Shared flanks, not repeated: GGGAGUUCUACAGUCCGACGAUC … UGGAAUUCUCGGGUGCCAA
Target sequence (chain): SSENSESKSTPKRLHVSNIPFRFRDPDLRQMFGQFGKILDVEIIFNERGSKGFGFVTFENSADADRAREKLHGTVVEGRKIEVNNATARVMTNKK
Oligonucleotide | RBNS enrichment (R)
GGAACUAUCCCACCAAAGUGAGAACGUUAUGUCAUGGCCAUACAAGUAGUCUGUCAACCUCAGACACUGGUUUCGAGACAGUUUACACUUGACAGUUGUUCAUUAGCGCA | 1.45
UUAACCUAGUGCUAGAUAGUCAGCUGCUGUUGCAGGUAGAAAAGCUCACCAAUGCCACAUUUGUUCAUUCUGUUCAACCUGUUUUGACCUCCCAGGCAUCUGAACAGGAU | 0.323
UCUACCUCCUAAAAAUGUAGCUUAUUUUUAGGAUUUAAAUCACUAAGUAAAUAAGUAUCCUUGCCAAGUGAUCAUGAGUGUCAUUUUUGUUCUAAGACUAAUAUUUUUAG | 0.381
AGAAGAGAGGACCUUGUUCUCUGUAGUUGGGAAUCCCAACUCUGAAUCUUUACAACAUCCAUCGUCACAAAAGAGUGUUAUACAUUUAAUCCACAGGGCAUAGUUUUCUU | 0.486
UUGAAAGGACGUUCGCCAAGGGCCGUGUGUAAAUACGAACUGCGCCAUGGAGAGGAGAGGCACUGCCGGAGCCCUUGCCAGAUCUCCCUCCCUCUCUCCGUGCAGUAGCU | 0.387
UUCCCGUUGCUUUGUUUUUCUGUCUGAAGGAAUCUUUUUCUUAGUCUUGUGAGCAGAUGUACCUGAAGGAUUCUGCUGUUCCAUGAGGGUCUGGCUCUCAGGCUGUAGGC | 4.31
GAGGCCCUGCAGAGCCCACCUGUGGGGAAAGAGAAGGGGCAGCUUCCGGAUUUUCUUUUGGGGGUUAGAAGGUCAGGUGUGGAGACUGCUCGCCAGUCUCUGUGAGCCUA | 0.442
UGGACAUCUUGGCAACACAAUCUUACAAAGGCAGAUUCAGCUGCCCCCAUACCACUGUGUUCCUUCUGUAACGCCACGUUCUCCCUCCAGCAUGCCGAGCACAAUGUCCA | 2.27

Mixed results
Molecule | target | test | test system | conditions | how to read | quantity | value
PhoQ, residues 284 288 289 292 302 303 SLSLLA | PhoP, residues 12 14 15 18 19 NQAHL (Escherichia coli, UniProt P23836) | Sort-seq, refers to: YFP reporter | E. coli | PhoQ-PhoP variant library, with: 10 µM Mg2+ | baseline: high Mg2+ state, higher = stronger signaling | fold induction | 29.4

A few entries again (series 1):
Oligonucleotide | fitted relative affinity [z-score]
TTAGATATCGGGTATCGATTCGTGCTA | 0.701
GACGAACTGAGTCACGAGACGTGCTAG | -0.132
